Earlier results that unrelated publications cite.
UniProt Q9H2X6, sequence (whole entry, looked up): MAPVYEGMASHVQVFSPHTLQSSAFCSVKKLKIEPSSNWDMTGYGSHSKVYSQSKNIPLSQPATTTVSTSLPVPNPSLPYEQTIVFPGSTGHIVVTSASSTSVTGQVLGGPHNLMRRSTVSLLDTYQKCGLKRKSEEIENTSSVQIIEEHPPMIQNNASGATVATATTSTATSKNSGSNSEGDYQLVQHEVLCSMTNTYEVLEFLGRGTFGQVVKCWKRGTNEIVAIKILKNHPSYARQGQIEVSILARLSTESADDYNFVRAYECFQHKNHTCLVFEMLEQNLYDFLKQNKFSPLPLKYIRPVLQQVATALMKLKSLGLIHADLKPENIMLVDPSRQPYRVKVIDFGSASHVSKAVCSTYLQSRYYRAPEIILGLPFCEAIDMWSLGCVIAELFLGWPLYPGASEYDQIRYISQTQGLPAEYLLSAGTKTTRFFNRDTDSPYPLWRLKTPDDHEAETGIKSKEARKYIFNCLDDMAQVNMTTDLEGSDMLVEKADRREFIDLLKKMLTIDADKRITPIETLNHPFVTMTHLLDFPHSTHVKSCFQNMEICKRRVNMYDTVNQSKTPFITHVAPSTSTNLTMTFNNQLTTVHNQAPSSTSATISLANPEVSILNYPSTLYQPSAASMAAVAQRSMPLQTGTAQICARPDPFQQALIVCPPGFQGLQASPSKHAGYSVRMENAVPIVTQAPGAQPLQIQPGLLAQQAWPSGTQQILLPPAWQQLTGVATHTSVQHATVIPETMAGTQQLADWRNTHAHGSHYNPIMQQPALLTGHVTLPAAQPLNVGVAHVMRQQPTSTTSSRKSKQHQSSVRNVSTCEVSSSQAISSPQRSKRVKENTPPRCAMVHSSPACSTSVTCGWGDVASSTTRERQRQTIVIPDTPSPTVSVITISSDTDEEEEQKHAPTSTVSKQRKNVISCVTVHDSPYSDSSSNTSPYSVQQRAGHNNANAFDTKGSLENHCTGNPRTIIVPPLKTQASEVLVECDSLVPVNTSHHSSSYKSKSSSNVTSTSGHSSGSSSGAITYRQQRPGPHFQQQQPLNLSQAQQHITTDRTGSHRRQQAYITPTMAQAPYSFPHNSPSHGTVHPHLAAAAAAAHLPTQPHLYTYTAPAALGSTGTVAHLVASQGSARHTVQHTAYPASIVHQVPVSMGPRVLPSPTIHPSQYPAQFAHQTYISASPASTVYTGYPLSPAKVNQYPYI

Oc1ccc(-c2nc(-c3ccc(OC4CCCC4)cc3)no2)cc1  MIC (Streptococcus pyogenes; ATCC 49399): > 128 µg/mL
Oc1ccc(-c2nc(-c3ccc(OC4CCCC4)cc3)no2)cc1  MIC (Veillonella sp.; HM-49): > 128 µg/mL
Nc1cc(C(F)(F)F)c(-c2nc(N3CCOCC3)nc(N3CCOCC3)n2)cn1  remaining activity (Homeodomain-interacting protein kinase 2 (HIPK2, Homo sapiens, UniProt Q9H2X6); enzyme activity; 10 µM; relative to: untreated): 100%
CN[C@H](CC(C)C)C(=O)N[C@H]1C(=O)N[C@@H](CC(N)=O)C(=O)N[C@H]2C(=O)N[C@H]3C(=O)N[C@H](C(=O)N[C@H](C(=O)O)c4cc(O)cc(O)c4-c4cc3ccc4O)[C@H](O)c3ccc(c(Cl)c3)Oc3cc2cc(c3O[C@@H]2O[C@H](CO)[C@@H](O)[C@H](O)[C@H]2O[C@H]2C[C@](C)(N)[C@H](O)[C@H](C)O2)Oc2ccc(cc2Cl)[C@H]1O  MIC (Streptococcus pyogenes; SSI-9): 0.34 µM
FC(F)(F)c1ccc(Oc2ccc(-c3noc(-c4ccc5[nH]ccc5c4)n3)cc2)cc1  MIC (Lactobacillus reuteri; HM-102): > 128 µg/mL
C[C@H]1COc2c(N3CCN(C)CC3)c(F)cc3c(=O)c(C(=O)O)cn1c23  MIC (Mycolicibacterium smegmatis; mc2155): 0.25 µg/mL
NCC[C@H](O)C(=O)N[C@@H]1C[C@H](N)[C@@H](O[C@H]2O[C@H](CN)[C@@H](O)[C@H](O)[C@H]2O)[C@H](O)[C@H]1O[C@H]1O[C@H](CO)[C@@H](O)[C@H](N)[C@H]1O  MIC (Escherichia coli; ATCC 25922): 0.5 to 4 µg/mL
CC[C@@H](CO)NCCN[C@@H](CC)CO  MIC (Mycolicibacterium smegmatis; mc2155): 0.5 µg/mL
CCc1c(Cl)c(O)c(Cl)c(O)c1C(=O)O[C@H]1[C@H](O)[C@H](OC)[C@H](OC/C2=C\C=C\C[C@H](O)/C(C)=C/[C@H](CC)[C@@H](O[C@@H]3OC(C)(C)[C@@H](OC(=O)C(C)C)[C@H](O)[C@@H]3O)/C(C)=C/C(C)=C/C[C@@H]([C@@H](C)O)OC2=O)O[C@@H]1C  MIC (Corynebacterium; HM-784): < 0.06 µg/mL
CO/N=C(\C(=O)N[C@@H]1C(=O)N2C(C(=O)O)=C(CSc3nc(=O)c(=O)[nH]n3C)CS[C@H]12)c1csc(N)n1  MIC (Escherichia coli; ATCC BAA-2469): 2050 µg/mL
CCc1c(Cl)c(O)c(Cl)c(O)c1C(=O)O[C@H]1[C@H](O)[C@H](OC)[C@H](OC/C2=C\C=C\C[C@H](O)/C(C)=C/[C@H](CC)[C@@H](O[C@@H]3OC(C)(C)[C@@H](OC(=O)C(C)C)[C@H](O)[C@@H]3O)/C(C)=C/C(C)=C/C[C@@H]([C@@H](C)O)OC2=O)O[C@@H]1C  MIC (Bacteroides fragilis; HM-709): > 32 µg/mL
CO/N=C(\C(=O)N[C@@H]1C(=O)N2C(C(=O)O)=C(COC(C)=O)CS[C@H]12)c1csc(N)n1  MIC (Mycolicibacterium smegmatis; mc2155): 100 µg/mL
CNC(C)C1CCC(N)C(OC2C(N)CC(N)C(OC3OCC(C)(O)C(NC)C3O)C2O)O1 (centres unmarked)  MIC (Enterobacter cloacae; clinical isolate RKI-No_287/13): 1 µg/mL
CC(C)(O/N=C(\C(=O)N[C@@H]1C(=O)N2C(C(=O)[O-])=C(C[n+]3ccccc3)CS[C@H]12)c1csc(N)n1)C(=O)O  MIC (Escherichia coli; ATCC 25922): 0.06 to 0.5 µg/mL
CC1(C)S[C@@H]2[C@H](NC(=O)[C@H](N)c3ccccc3)C(=O)N2[C@H]1C(=O)O  MIC (Mycolicibacterium smegmatis; mc2155): 18.7 µg/mL
CO[C@H]1/C=C/O[C@@]2(C)Oc3c(C)c(O)c4c(O)c(c(/C=N/N5CCN(C)CC5)c(O)c4c3C2=O)NC(=O)/C(C)=C\C=C\[C@H](C)[C@H](O)[C@@H](C)[C@@H](O)[C@@H](C)[C@H](OC(C)=O)[C@@H]1C  MIC (Escherichia coli; ATCC 25922): 4 to 16 µg/mL
CC1(C)S[C@@H]2[C@H](NC(=O)[C@H](N)c3ccccc3)C(=O)N2[C@H]1C(=O)O  MIC (Enterobacter cloacae; clinical isolate RKI-No_571/13): > 16 µg/mL

A few entries again:
FC(F)(F)c1ccc(Oc2ccc(-c3noc(-c4ccc5[nH]ccc5c4)n3)cc2)cc1  MIC (Lactobacillus reuteri; HM-102): > 128 µg/mL
C[C@H]1COc2c(N3CCN(C)CC3)c(F)cc3c(=O)c(C(=O)O)cn1c23  MIC (Mycolicibacterium smegmatis; mc2155): 0.25 µg/mL
NCC[C@H](O)C(=O)N[C@@H]1C[C@H](N)[C@@H](O[C@H]2O[C@H](CN)[C@@H](O)[C@H](O)[C@H]2O)[C@H](O)[C@H]1O[C@H]1O[C@H](CO)[C@@H](O)[C@H](N)[C@H]1O  MIC (Escherichia coli; ATCC 25922): 0.5 to 4 µg/mL
